Published values from different studies.
Lines come from different studies, so protocols differ. Numbers after ± are the reported error.
Oprd1: Delta-type opioid receptor (Oprd1, Rattus norvegicus, UniProt P33533)
Sequence of UniProt P33533 (whole entry, looked up): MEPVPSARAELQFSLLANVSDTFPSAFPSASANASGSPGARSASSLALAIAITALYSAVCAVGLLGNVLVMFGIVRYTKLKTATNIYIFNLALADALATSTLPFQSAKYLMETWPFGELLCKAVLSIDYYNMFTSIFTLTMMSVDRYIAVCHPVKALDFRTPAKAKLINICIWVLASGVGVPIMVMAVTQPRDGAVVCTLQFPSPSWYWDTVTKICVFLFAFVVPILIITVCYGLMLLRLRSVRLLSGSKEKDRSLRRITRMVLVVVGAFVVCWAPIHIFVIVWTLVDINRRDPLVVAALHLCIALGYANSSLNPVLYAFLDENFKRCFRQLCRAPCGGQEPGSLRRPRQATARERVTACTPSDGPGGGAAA
GIPR: Gastric inhibitory polypeptide receptor (GIPR, Homo sapiens, UniProt P48546)
Sequence of UniProt P48546 (whole entry, looked up): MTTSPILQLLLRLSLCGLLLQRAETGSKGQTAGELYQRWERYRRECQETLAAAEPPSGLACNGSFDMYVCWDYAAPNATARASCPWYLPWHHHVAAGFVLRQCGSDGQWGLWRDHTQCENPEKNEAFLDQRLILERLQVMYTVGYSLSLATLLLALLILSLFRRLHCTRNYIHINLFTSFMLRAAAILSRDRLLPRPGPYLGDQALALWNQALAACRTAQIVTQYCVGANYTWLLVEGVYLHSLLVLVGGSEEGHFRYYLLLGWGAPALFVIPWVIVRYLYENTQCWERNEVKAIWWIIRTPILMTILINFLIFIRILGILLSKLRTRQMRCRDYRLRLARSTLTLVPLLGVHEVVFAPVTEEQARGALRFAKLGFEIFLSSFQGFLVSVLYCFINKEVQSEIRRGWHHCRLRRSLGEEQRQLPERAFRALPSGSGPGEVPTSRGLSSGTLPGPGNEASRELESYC
histidine kinase ComD: histidine kinase ComD (Streptococcus pneumoniae serotype 4, UniProt A0A0H2US84)
DRD3: D(3) dopamine receptor (DRD3, Homo sapiens, UniProt P35462)
Sequence of UniProt P35462 (whole entry, looked up): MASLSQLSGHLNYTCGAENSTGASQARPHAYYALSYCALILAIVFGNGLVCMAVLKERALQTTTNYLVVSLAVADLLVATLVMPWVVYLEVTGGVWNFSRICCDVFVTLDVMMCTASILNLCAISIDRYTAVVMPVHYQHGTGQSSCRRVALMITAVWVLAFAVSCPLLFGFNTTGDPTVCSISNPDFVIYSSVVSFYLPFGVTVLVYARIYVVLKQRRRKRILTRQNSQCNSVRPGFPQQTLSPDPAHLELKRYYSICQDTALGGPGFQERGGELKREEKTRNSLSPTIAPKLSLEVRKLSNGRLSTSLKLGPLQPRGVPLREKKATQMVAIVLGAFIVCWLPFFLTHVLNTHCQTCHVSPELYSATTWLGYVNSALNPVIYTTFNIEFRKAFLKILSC
Sequence of UniProt P10826 (whole entry, looked up): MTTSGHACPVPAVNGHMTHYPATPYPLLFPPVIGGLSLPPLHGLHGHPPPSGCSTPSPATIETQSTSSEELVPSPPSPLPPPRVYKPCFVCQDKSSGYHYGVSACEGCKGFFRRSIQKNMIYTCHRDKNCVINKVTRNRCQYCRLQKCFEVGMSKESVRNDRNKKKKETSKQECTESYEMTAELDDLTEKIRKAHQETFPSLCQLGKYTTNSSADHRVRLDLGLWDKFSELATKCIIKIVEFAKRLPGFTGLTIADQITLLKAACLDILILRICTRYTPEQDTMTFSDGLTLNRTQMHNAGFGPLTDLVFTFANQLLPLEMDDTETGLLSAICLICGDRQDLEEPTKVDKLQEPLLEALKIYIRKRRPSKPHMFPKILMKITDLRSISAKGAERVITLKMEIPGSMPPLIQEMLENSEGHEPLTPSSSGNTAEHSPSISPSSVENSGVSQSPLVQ
Sequence of UniProt Q96NY8 (whole entry, looked up): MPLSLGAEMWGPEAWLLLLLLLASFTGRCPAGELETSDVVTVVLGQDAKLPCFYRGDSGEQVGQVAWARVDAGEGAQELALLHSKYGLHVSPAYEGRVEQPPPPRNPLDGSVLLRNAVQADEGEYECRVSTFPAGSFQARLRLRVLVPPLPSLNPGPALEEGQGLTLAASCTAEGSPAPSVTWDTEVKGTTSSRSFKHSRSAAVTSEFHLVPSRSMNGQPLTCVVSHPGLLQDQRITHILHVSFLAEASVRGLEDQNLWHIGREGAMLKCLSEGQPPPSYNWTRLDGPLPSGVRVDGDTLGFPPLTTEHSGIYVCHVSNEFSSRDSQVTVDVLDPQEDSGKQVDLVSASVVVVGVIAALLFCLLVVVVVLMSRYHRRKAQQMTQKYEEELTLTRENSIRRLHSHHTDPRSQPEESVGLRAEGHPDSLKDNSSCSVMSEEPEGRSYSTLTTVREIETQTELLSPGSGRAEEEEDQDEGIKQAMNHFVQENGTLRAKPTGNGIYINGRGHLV
Sequence of UniProt P21554 (whole entry, looked up): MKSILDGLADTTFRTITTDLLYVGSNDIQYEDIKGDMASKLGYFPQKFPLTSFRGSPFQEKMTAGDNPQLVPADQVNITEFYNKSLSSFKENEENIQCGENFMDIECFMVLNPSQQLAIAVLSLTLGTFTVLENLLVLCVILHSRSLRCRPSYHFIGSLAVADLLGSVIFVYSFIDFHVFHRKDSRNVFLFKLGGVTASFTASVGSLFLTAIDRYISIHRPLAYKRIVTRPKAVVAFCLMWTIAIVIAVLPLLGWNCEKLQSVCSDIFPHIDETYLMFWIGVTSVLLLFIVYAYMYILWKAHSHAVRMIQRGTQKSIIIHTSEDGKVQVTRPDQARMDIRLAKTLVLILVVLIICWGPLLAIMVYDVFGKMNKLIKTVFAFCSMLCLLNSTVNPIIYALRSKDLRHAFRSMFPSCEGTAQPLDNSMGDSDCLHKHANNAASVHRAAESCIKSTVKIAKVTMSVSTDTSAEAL
Sequence of UniProt P56450 (whole entry, looked up): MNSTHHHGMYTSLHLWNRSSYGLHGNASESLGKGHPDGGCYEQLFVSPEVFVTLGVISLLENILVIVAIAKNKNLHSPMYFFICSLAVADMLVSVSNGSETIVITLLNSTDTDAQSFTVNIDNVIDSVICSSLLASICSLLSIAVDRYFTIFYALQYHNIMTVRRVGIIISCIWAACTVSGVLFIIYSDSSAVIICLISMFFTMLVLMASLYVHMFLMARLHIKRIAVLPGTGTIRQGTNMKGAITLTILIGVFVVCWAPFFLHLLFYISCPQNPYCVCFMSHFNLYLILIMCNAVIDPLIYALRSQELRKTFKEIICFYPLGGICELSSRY
Sequence of UniProt P43220 (whole entry, looked up): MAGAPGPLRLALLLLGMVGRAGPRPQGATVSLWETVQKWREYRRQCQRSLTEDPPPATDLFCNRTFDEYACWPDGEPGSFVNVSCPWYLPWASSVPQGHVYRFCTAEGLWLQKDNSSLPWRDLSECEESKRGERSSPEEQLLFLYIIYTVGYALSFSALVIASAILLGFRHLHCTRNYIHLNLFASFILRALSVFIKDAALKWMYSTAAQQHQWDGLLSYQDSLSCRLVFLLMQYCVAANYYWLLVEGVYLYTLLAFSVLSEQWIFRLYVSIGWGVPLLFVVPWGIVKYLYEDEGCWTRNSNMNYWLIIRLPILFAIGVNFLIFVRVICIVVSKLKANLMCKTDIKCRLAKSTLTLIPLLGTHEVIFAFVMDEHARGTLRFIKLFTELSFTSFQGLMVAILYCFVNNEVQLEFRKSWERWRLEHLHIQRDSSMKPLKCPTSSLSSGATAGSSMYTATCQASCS
Sequence of UniProt Q9NSD7 (whole entry, looked up): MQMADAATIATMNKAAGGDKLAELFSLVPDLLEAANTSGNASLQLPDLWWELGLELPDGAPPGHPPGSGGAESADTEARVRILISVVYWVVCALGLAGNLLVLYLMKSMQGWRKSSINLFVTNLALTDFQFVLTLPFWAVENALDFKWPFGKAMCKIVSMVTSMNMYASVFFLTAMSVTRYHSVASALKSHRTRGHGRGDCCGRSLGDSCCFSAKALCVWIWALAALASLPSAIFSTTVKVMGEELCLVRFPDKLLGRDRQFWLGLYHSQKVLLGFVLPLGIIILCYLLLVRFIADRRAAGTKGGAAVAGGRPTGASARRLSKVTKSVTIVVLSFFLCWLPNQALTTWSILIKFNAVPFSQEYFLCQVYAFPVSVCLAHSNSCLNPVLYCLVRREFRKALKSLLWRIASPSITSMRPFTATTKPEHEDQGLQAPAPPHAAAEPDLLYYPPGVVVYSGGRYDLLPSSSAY
Sequence of UniProt P50391 (whole entry, looked up): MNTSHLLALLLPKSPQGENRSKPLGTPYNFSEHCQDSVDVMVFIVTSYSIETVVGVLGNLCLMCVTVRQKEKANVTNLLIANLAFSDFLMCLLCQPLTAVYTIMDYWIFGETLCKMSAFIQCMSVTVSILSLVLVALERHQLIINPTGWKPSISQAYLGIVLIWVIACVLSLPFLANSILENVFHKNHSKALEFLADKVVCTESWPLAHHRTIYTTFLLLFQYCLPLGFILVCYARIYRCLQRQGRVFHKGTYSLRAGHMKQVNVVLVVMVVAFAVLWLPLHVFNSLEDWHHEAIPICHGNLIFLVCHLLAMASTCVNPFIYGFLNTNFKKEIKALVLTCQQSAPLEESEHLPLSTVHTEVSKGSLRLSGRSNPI
Sequence of UniProt P08482 (whole entry, looked up): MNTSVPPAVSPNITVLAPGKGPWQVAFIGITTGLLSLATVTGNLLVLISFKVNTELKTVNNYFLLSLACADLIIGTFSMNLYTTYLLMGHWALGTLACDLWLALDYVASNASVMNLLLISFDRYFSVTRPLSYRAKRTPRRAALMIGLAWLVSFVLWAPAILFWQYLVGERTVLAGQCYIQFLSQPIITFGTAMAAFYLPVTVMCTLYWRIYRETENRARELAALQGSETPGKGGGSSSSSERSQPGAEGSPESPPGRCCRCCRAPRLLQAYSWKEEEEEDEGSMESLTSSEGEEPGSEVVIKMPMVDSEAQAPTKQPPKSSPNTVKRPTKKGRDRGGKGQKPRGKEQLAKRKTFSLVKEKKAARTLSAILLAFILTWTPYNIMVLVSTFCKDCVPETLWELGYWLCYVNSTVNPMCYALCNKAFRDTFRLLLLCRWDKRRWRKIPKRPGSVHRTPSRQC

| Compound | target | assay | system | setting | EC50 [nM] |
| --- | --- | --- | --- | --- | --- |
| CC[C@H](C)[C@H](NC(=O)[C@H](Cc1ccccc1)NC(=O)[C@H](CCC(=O)O)NC(=O)[C@H](CCCCN)NC(=O)[C@H](C)NC(=O)[C@H](C)NC(=O)[C@H](CCC(N)=O)NC(=O)CNC(=O)[C@H](CCC(=O)O)NC(=O)[C@H](CC(C)C)NC(=O)[C@H](Cc1ccc(O)cc1)NC(=O)[C@H](CO)NC(=O)[C@H](CO)NC(=O)[C@@H](NC(=O)[C@H](CC(=O)O)NC(=O)[C@H](CO)NC(=O)[C@@H](NC(=O)[C@H](Cc1ccccc1)NC(=O)[C@@H](NC(=O)CNC(=O)[C@H](CCC(=O)O)NC(=O)C(C)(C)NC(=O)N(N)Cc1c[nH]cn1)[C@@H](C)O)[C@@H](C)O)C(C)C)C(=O)N[C@@H](C)C(=O)N[C@@H](Cc1c[nH]c2ccccc12)C(=O)N[C@@H](CC(C)C)C(=O)N[C@H](C(=O)N[C@@H](CCCNC(=N)N)C(=O)NCC(=O)N[C@@H](CCCNC(=N)N)C(=O)NCC(=O)O)C(C)C | GLP1R (Homo sapiens, UniProt P43220) | reporter gene, agonist, luciferase |  |  | 0.3 to 0.7 |
| CC1(C)CCC(C)(C)c2c1cc(C(=O)Nc1cc(F)c(C(=O)O)c(F)c1)c(O)c2Cl | RARB (Homo sapiens, UniProt P10826) | reporter gene, agonist, luciferase |  |  | > 5000 |
| CC(C)C[C@@H]1NC(=O)[C@H](Cc2ccc(O)cc2)NC(=O)[C@H](CCCNC(=N)N)NC(=O)[C@H](C(C)C)NC(=O)[C@@H]2CCCN2C(=O)[C@H](Cc2ccccc2)NC(=O)[C@H](C)NC(=O)[C@H](CC(N)=O)NC(=O)[C@H](Cc2ccc(OS(=O)(=O)F)cc2)NC(=O)[C@@H](Cc2ccccc2)NC(=O)CSC[C@@H](C(=O)NCCOCCOCC(=O)NCCOCCOCC(=O)N[C@@H](CCCCN=[N+]=[N-])C(N)=O)NC(=O)[C@H](Cc2c[nH]c3ccccc23)NC(=O)[C@H](CCCCN)NC(=O)[C@H](CCCCN)NC1=O | Nectin-4, extracellular domain (Homo sapiens, UniProt Q96NY8) | covalent labelling, in-gel fluorescence |  | 4 h, 37 °C | 36000 ± 8000 |
| Cc1cc(O)cc(C)c1CC(N)C(=O)NC1CCNc2c(F)cc(Cc3ccccc3)cc21 (stereo not shown) | Oprd1 | GTPγS binding, agonist, radiometric |  | cell membranes | 97 |
| Cn1ccc(-c2ccc(Cn3cc(C(=O)N[C@H]4CCCC[C@@H]4O)c4c(F)cc(F)cc43)cn2)n1 | Chrm1 (Rattus norvegicus, UniProt P08482) | calcium signal, agonist |  |  | 4600 |
| CC[C@H](C)[C@@H]1NC(=O)[C@H](Cc2ccccc2)NC(=O)[C@H](CC(N)=O)NC(=O)[C@@H](NC(=O)[C@@H](NC(=O)[C@H](CO)NC(=O)[C@@H](N)Cc2ccc(O)cc2)[C@@H](C)O)CSC(=O)[C@H](CCSC)NC1=O | Accessory gene regulator protein C (Staphylococcus aureus, UniProt O33590) |  |  |  | 1120 |
| CC[C@H](C)[C@H](NC(=O)[C@H](CO)NC(=O)[C@H](Cc1ccc(O)cc1)NC(=O)[C@H](CC(=O)O)NC(=O)[C@H](CO)NC(=O)[C@@H](NC(=O)[C@H](Cc1ccccc1)NC(=O)[C@@H](NC(=O)CNC(=O)[C@H](CCC(=O)O)NC(=O)C(C)(C)NC(=O)[C@@H](N)Cc1ccc(O)cc1)[C@@H](C)O)[C@@H](C)CC)C(=O)N[C@@H](C)C(=O)N[C@@H](CCSC)C(=O)N[C@@H](CC(=O)O)C(=O)N[C@@H](CCCCN)C(=O)N[C@H](C(=O)N[C@@H](Cc1c[nH]cn1)C(=O)N[C@@H](CCC(N)=O)C(=O)N[C@@H](CCC(N)=O)C(=O)N[C@@H](CC(=O)O)C(=O)N[C@@H](Cc1ccccc1)C(=O)N[C@H](C(=O)N[C@@H](CC(N)=O)C(=O)N[C@@H](Cc1c[nH]c2ccccc12)C(=O)N[C@@H](CC(C)C)C(=O)N[C@@H](CC(C)C)C(=O)N[C@@H](C)C(=O)N[C@@H](CCC(N)=O)C(=O)N[C@@H](CCCCN)C(=O)NCC(=O)N[C@@H](CCCCN)C(=O)N[C@@H](CCCCN)C(=O)N[C@@H](CC(N)=O)C(=O)N[C@@H](CC(=O)O)C(=O)N[C@@H](Cc1c[nH]c2ccccc12)C(=O)N[C@@H](CCCCN)C(=O)N[C@@H](Cc1c[nH]cn1)C(=O)N[C@@H](CC(N)=O)C(=O)N[C@H](C(=O)N[C@H](C(=O)N[C@@H](CCC(N)=O)C(=O)O)[C@@H](C)O)[C@@H](C)CC)C(C)C)[C@@H](C)CC | GIPR | reporter gene, agonist, luciferase |  |  | 0.0039 |
| CN1CCCCC1Cn1c2ccccc2c2cc(C(=O)c3cccc4ccccc34)ccc21 (stereo not shown) | CNR1 (Homo sapiens, UniProt P21554) | GTPγS binding, agonist, radiometric |  | cell membranes | 263 |
| CC[C@H](C)[C@H](NC(=O)[C@H](Cc1ccccc1)NC(=O)[C@H](Cc1c[nH]cn1)NC(=O)[C@@H](NC(=O)[C@H](CC(C)C)NC(=O)[C@H](CCCNC(=N)N)NC(=O)[C@@H](NC(=O)[C@@H](N)CCC(=O)O)[C@@H](C)CC)[C@@H](C)O)C(=O)N[C@@H](Cc1ccccc1)C(=O)N[C@@H](Cc1ccccc1)C(=O)N[C@@H](Cc1ccccc1)C(=O)N[C@@H](Cc1ccccc1)C(=O)N[C@@H](Cc1ccccc1)C(=O)N[C@@H](CCCCN)C(=O)N[C@@H](CCCNC(=N)N)C(=O)N[C@@H](CCCNC(=N)N)C(=O)O | histidine kinase ComD | reporter gene, agonist | Streptococcus pneumoniae, TIGR4 comX::lacZ | 30 min, pH 7.3, 37 °C | > 10000 |
| CC[C@H](C)[C@H](NC(=O)[C@H](Cc1ccccc1)NC(=O)[C@@H]1CNC(=O)NCC[C@H](NC(=O)[C@H](CO)NC(=O)[C@H](CC(C)C)NC(=O)[C@H](CCCNC(=N)N)NC(=O)[C@H](CCSC)NC(=O)[C@H](C)N)C(=O)N[C@@H](Cc2ccccc2)C(=O)N[C@@H](Cc2ccccc2)C(=O)N[C@@H](CCCNC(=N)N)C(=O)N1)C(=O)N[C@@H](CC(C)C)C(=O)N[C@@H](CCC(N)=O)C(=O)N[C@@H](CCCNC(=N)N)C(=O)N[C@@H](CCCCN)C(=O)N[C@@H](CCCCN)C(=O)O | histidine kinase ComD |  | Streptococcus pneumoniae |  | > 1000 |
| CC(C)[C@H](NC(=O)[C@H](CC(N)=O)NC(=O)[C@H](Cc1ccc(O)cc1)NC(=O)[C@@H](N)CCCCN)C(=O)N[C@H]1CSC(=O)[C@H](Cc2ccccc2)NC(=O)[C@H](Cc2ccc(O)cc2)NC(=O)[C@H](CO)NC(=O)[C@H](C)NC1=O | Accessory gene regulator protein C (Staphylococcus epidermidis, UniProt Q8VSX2) |  |  |  | 40.6 |
| CC[C@H](C)[C@H](NC(=O)[C@H](CO)NC(=O)[C@H](Cc1ccc(O)cc1)NC(=O)[C@H](CC(=O)O)NC(=O)[C@H](CO)NC(=O)[C@@H](NC(=O)[C@H](Cc1ccccc1)NC(=O)[C@@H](NC(=O)CNC(=O)[C@@H]1CCCN1C(=O)[C@H](C)NC(=O)[C@@H](N)Cc1ccc(O)cc1)[C@@H](C)O)[C@@H](C)CC)C(=O)N[C@@H](C)C(=O)N[C@@H](CCSC)C(=O)N[C@@H](CC(=O)O)C(=O)N[C@@H](CCCCN)C(=O)N[C@H](C(=O)N[C@@H](CCCNC(=N)N)C(=O)N[C@@H](CCC(N)=O)C(=O)N[C@@H](CCC(N)=O)C(=O)N[C@@H](CC(=O)O)C(=O)N[C@@H](Cc1ccccc1)C(=O)N[C@H](C(=O)N[C@@H](CC(N)=O)C(=O)N[C@@H](Cc1c[nH]c2ccccc12)C(=O)N[C@@H](CC(C)C)C(=O)N[C@@H](CC(C)C)C(=O)N[C@@H](C)C(=O)N[C@@H](CCC(N)=O)C(=O)N[C@@H](CCCCN)C(=O)NCC(=O)N[C@@H](CCCCN)C(=O)N[C@@H](CCCCN)C(=O)N[C@@H](CC(N)=O)C(=O)N[C@@H](CC(=O)O)C(=O)N[C@@H](Cc1c[nH]c2ccccc12)C(=O)N[C@@H](CCCCN)C(=O)N[C@@H](Cc1c[nH]cn1)C(=O)N[C@@H](CC(N)=O)C(=O)N[C@@H](CC(C)C)C(=O)N[C@H](C(=O)N[C@@H](CCC(N)=O)C(=O)O)[C@@H](C)O)C(C)C)[C@@H](C)CC | GIPR | cAMP, agonist |  |  | 12 |
| CC(=O)N[C@@H](CCCNC(=N)N)C(=O)N[C@@H](CCCNC(=N)N)C(=O)N[C@H](C(=O)N1Cc2ccccc2C[C@H]1C(N)=O)[C@H](c1ccccc1)c1c[nH]c2ccccc12 | Melanocortin receptor 4 (Mus musculus, UniProt P56450) | cAMP, agonist, AlphaScreen |  |  | > 100000 |
| NCCCC[C@H](N)C(=O)N[C@@H](Cc1ccc(O)cc1)C(=O)N[C@@H](CC(N)=O)C(=O)N1CCC[C@H]1C(=O)N[C@H]1CSC(=O)[C@H](Cc2ccccc2)NC(=O)[C@H](Cc2ccc(O)cc2)NC(=O)[C@H](CC(N)=O)NC(=O)[C@H](CO)NC1=O | Accessory gene regulator protein C (Staphylococcus epidermidis, UniProt Q8VSX2) |  |  |  | > 2000 |
| CC[C@H](C)[C@@H]1NC(=O)[C@@H](NC(=O)[C@H](CCC(=O)O)NC(=O)[C@H](CCCNC(=N)N)NC(=O)CNC(=O)[C@H](CO)NC(=O)[C@H](CC(C)C)NC(=O)[C@H](CCCNC(=N)N)NC(=O)[C@@H](NC(=O)CNC(=O)[C@H](Cc2ccc(O)cc2)NC(=O)[C@@H]2CCCN2C(=O)[C@H](C)NC(=O)[C@H](C)NC(=O)[C@@H](N)CCCNC(=N)N)C(C)C)CCCCNC(=O)C[C@@H](C(=O)N[C@H](C(=O)N[C@@H](Cc2ccccc2)C(=O)N[C@H](C(=O)N[C@@H](CO)C(=O)NCC(=O)NCC(=O)N[C@@H](CO)C(=O)N[C@@H](CCCNC(=N)N)C(=O)N[C@@H](Cc2c[nH]c3ccccc23)C(=O)O)[C@@H](C)O)[C@@H](C)CC)NC(=O)[C@H](C)NC(=O)[C@H](CCCNC(=N)N)NC1=O | RXFP3 (Homo sapiens, UniProt Q9NSD7) | cAMP, agonist |  |  | 1070 |
| CC(N)CCc1ccc(Cl)cc1 (racemic) | DRD3 | GTPγS binding, agonist, radiometric |  | cell membranes | 33.5 |
| Cc1cc(O)cc(C)c1CC(N)C(=O)NC1CCNc2c(C)cc(Cc3ccccc3)cc21 (stereo not shown) | Oprd1 | GTPγS binding, agonist, radiometric |  | cell membranes | 110 |
| CC(N)CCc1ccccc1I (racemic) | DRD3 | GTPγS binding, agonist, radiometric |  | cell membranes | 1320 |
| CC(=O)N[C@H](CCCNC(=N)N)C(=O)N[C@@H](Cc1ccc(O)cc1)C(=O)N[C@@H](CCCNC(=N)NC(=O)NCCCCN)C(=O)N[C@@H](CC(C)C)C(=O)N[C@@H](CCCNC(=N)N)C(=O)N[C@@H](Cc1ccc(O)cc1)C(N)=O | NPY4R (Homo sapiens, UniProt P50391) | β-arrestin 1 recruitment, agonist | HEK293T |  | 2160 ± 600 |

Some of these lines once more:
| Compound | target | assay | system | setting | EC50 [nM] |
| --- | --- | --- | --- | --- | --- |
| CC[C@H](C)[C@H](NC(=O)[C@H](Cc1ccccc1)NC(=O)[C@H](CCC(=O)O)NC(=O)[C@H](CCCCN)NC(=O)[C@H](C)NC(=O)[C@H](C)NC(=O)[C@H](CCC(N)=O)NC(=O)CNC(=O)[C@H](CCC(=O)O)NC(=O)[C@H](CC(C)C)NC(=O)[C@H](Cc1ccc(O)cc1)NC(=O)[C@H](CO)NC(=O)[C@H](CO)NC(=O)[C@@H](NC(=O)[C@H](CC(=O)O)NC(=O)[C@H](CO)NC(=O)[C@@H](NC(=O)[C@H](Cc1ccccc1)NC(=O)[C@@H](NC(=O)CNC(=O)[C@H](CCC(=O)O)NC(=O)C(C)(C)NC(=O)N(N)Cc1c[nH]cn1)[C@@H](C)O)[C@@H](C)O)C(C)C)C(=O)N[C@@H](C)C(=O)N[C@@H](Cc1c[nH]c2ccccc12)C(=O)N[C@@H](CC(C)C)C(=O)N[C@H](C(=O)N[C@@H](CCCNC(=N)N)C(=O)NCC(=O)N[C@@H](CCCNC(=N)N)C(=O)NCC(=O)O)C(C)C | GLP1R (Homo sapiens, UniProt P43220) | reporter gene, agonist, luciferase |  |  | 0.3 to 0.7 |
| CC1(C)CCC(C)(C)c2c1cc(C(=O)Nc1cc(F)c(C(=O)O)c(F)c1)c(O)c2Cl | RARB (Homo sapiens, UniProt P10826) | reporter gene, agonist, luciferase |  |  | > 5000 |
| CC(C)C[C@@H]1NC(=O)[C@H](Cc2ccc(O)cc2)NC(=O)[C@H](CCCNC(=N)N)NC(=O)[C@H](C(C)C)NC(=O)[C@@H]2CCCN2C(=O)[C@H](Cc2ccccc2)NC(=O)[C@H](C)NC(=O)[C@H](CC(N)=O)NC(=O)[C@H](Cc2ccc(OS(=O)(=O)F)cc2)NC(=O)[C@@H](Cc2ccccc2)NC(=O)CSC[C@@H](C(=O)NCCOCCOCC(=O)NCCOCCOCC(=O)N[C@@H](CCCCN=[N+]=[N-])C(N)=O)NC(=O)[C@H](Cc2c[nH]c3ccccc23)NC(=O)[C@H](CCCCN)NC(=O)[C@H](CCCCN)NC1=O | Nectin-4, extracellular domain (Homo sapiens, UniProt Q96NY8) | covalent labelling, in-gel fluorescence |  | 4 h, 37 °C | 36000 ± 8000 |
